Measured values collected from several papers.
Lines come from different studies, so protocols differ. Values joined by “and” are separate records of one study, mostly repeats; a detail may differ.
Target: cAMP-dependent protein kinase catalytic subunit alpha (PRKACA, Homo sapiens, UniProt P17612)

| Compound | assay | setting | scale | measurement | value |
| --- | --- | --- | --- | --- | --- |
| C=CC(=O)N1CCc2ccc(-n3c(=O)ccc4cnc5ccc(-c6cnn(C)c6)cc5c43)cc21 | KINOMEscan | 1 µM | relative to: DMSO control | remaining binding | 94% |
| C=CC(=O)N1CCCC(n2c(=O)c3ncccc3n(Cc3ccc(Oc4ccccc4)cc3)c2=O)C1 (stereo not shown) | cell-free assay, competition with immobilised ligand | 1 µM |  | remaining binding | 94% |
| C=C1CCCCCCCCCC(CO)C1=O (stereo not shown) | cell-free assay | 10 µM |  | remaining signal | 100% |
| C[C@H]1CN(C(=O)c2cn(-c3ccnc(N)n3)c3cc(C#CC4(O)CCCCC4)ccc23)CCN1 | enzyme activity, inhibitor, FRET | 1 µM |  | inhibition | 5% |
| NC(=O)[C@@H](O)C[C@H]1CCc2sc3ncnc(O[C@H]4CC[C@H](N5CCOCC5)CC4)c3c21 | enzyme activity, inhibitor | 10 µM |  | inhibition | 16% |
| Cc1[nH]nc2c1N=C(c1ccccc1Cl)c1cnc(N3CCOCC3)cc1N2 | enzyme activity, inhibitor | 0.5 µM |  | inhibition | 49.8% |
| COc1ccc(C(=O)/C=C/c2ccccc2-c2c[nH]c3ccc(C#N)cc23)c(O)c1 | enzyme activity, inhibitor | 20 µM |  | inhibition | -12% |
| c1ccc2c(Nc3cc(C4CCC4)[nH]n3)nc(Nc3ccc4nc[nH]c4c3)nc2c1 | enzyme activity, inhibitor | 0.25 µM |  | remaining activity | 65% |
| COCC12C(=O)NC3C4(C(OC)CC1O)C1CC5(O)C(OC)C(O)C(OC(C)=O)(C1C5OC(=O)c1ccccc1)C3(O)C(OC)C24 (stereo not shown) | kinase activity, inhibitor, ProQinase kinase profiling | 25 µM | relative to: control | remaining activity | 115% |
| COc1ccc(NC(=O)Nc2ccc3c(c2)C(=O)N(C(C)CO)CC(C)C(CN(C)Cc2ccc4c(c2)OCO4)O3)cc1 (stereo not shown) | kinase activity, KinaseProfiler | 0.03 µM, species human | relative to: control | remaining activity | 108% |
| Cc1cccc(O[C@H]2CCC[C@@H](C(C)CNCc3ccncc3)C2)c1 (relative stereo) | enzyme activity, inhibitor | 10 µM |  | inhibition | -3% |
| CNC(=O)C[C@H](Cc1ccc(C#N)cc1)NC(=O)c1cc(-c2ccc(CN[C@H](C)c3ccc(C)cc3)o2)ccc1Cl | enzyme activity, inhibitor | 1 µM |  | activity vs control | 107% |
| Cc1ccc(C)c(-c2ccc3nc(NC(=O)C4CCCCC4)nn3c2)c1 | enzyme activity, Dundee kinase panel | 10 µM |  | remaining activity | 82% |
| COc1cc(Nc2nc(C)cc(-c3cnn4nc(OC)ccc34)n2)cc(C(F)(F)F)c1 | KINOMEscan | 1 µM, PKAC-alpha | relative to: DMSO | remaining binding | 92% |
| O=c1c(-c2ccc(Cl)c(CN3CCOCC3)c2)coc2cc(O)ccc12 | enzyme activity, inhibitor | 1 µM |  | remaining activity | 95% |
| COc1c(Cl)cccc1Nc1c(-c2ccncc2C#C[C@@]2(C)CCCN2C(=O)/C=C/CN(C)C)[nH]c2c1C(=O)NCC2 | cell-free assay, competition with immobilised ligand | 3 µM |  | remaining binding | 79% |
| Cc1cccc(-c2ccc3nc(NC(=O)C4CCCO4)nn3c2)c1 (stereo not shown) | enzyme activity, Dundee kinase panel | 10 µM |  | remaining activity | 84% |
| O=C=[N][Ru-4]123([n]4c5ccc(O)cc5c5c6c(c7cc(F)c[n+]1c7c54)C(=O)NC6=O)[S+]1CC[S+]2CC[S+]3CC1 (stereo not shown) | enzyme activity | 100 nM, human enzyme, added: 10 µM ATP | relative to: untreated | remaining activity | 72% |
| CCN1CCN(Cc2ccc(C(=O)Nc3ccc(C)c(NCc4cnc5[nH]ccc5c4OC)c3)cc2C(F)(F)F)CC1 | binding, competition with immobilised ligand | 1 µM |  | remaining binding | 71% |
| CC(C)=CC1OC(C)(C)C2C=C3C(=O)C(Cl)=CC(O)C3C3C(O)C4OC4C(=O)C132 (stereo not shown) | cell-free assay, competition with immobilised ligand | 10 µM |  | remaining binding | 96% |
| CN1CCN(Cc2ccc(NC(=O)c3cccc(C#Cc4cnc(N)c5ncccc45)c3)cc2C(F)(F)F)CC1 | cell-free assay, competition with immobilised ligand | 50 nM |  | remaining binding | 87% |
| CCn1cc(C(=O)O)c(=O)c2c(N)c(F)c(NC3CCCCC3)cc21 | kinase activity | 0.1 µM, added: ATP at Km |  | inhibition | 0.5% |
| C=CC(=O)Nc1cccc(-c2cnc3[nH]cc(C(=O)NC(C)(C)C)c3n2)c1 | kinase activity | 0.1 µM |  | inhibition | 3% and 5% |
| COc1cc(-n2cc3cc(F)cc(C(N)=O)c3n2)cc(Cl)c1C1CC(O)(CCO)Cc2ccccc21 (stereo not shown) | enzyme activity, inhibitor | 10 µM |  | inhibition | 0.52% |
| Cc1nc2c(F)cc(-c3nc(Nc4ccc(CNC(=O)CCCCCCC(=O)NO)cc4)ncc3F)cc2n1C(C)C | enzyme activity, inhibitor | 1 µM |  | inhibition | 13% |

Excerpt of the above:
| Compound | assay | setting | scale | measurement | value |
| --- | --- | --- | --- | --- | --- |
| COc1ccc(C(=O)/C=C/c2ccccc2-c2c[nH]c3ccc(C#N)cc23)c(O)c1 | enzyme activity, inhibitor | 20 µM |  | inhibition | -12% |
| CCN1CCN(Cc2ccc(C(=O)Nc3ccc(C)c(NCc4cnc5[nH]ccc5c4OC)c3)cc2C(F)(F)F)CC1 | binding, competition with immobilised ligand | 1 µM |  | remaining binding | 71% |
| C=CC(=O)N1CCCC(n2c(=O)c3ncccc3n(Cc3ccc(Oc4ccccc4)cc3)c2=O)C1 (stereo not shown) | cell-free assay, competition with immobilised ligand | 1 µM |  | remaining binding | 94% |
| Cc1ccc(C)c(-c2ccc3nc(NC(=O)C4CCCCC4)nn3c2)c1 | enzyme activity, Dundee kinase panel | 10 µM |  | remaining activity | 82% |
